# Experimental data from different studies.
# Each line is one published result; not all experiments were run side by side. Several values in a cell are separate wells, animals, samples, runs or records. Numbers after ± are the reported error.
# HLA class I histocompatibility antigen, A alpha chain allele A*02:01: HLA class I histocompatibility antigen, A alpha chain, allele A*02:01 (Homo sapiens, UniProt P04439)
# Sequence of UniProt P48067 (whole entry, looked up): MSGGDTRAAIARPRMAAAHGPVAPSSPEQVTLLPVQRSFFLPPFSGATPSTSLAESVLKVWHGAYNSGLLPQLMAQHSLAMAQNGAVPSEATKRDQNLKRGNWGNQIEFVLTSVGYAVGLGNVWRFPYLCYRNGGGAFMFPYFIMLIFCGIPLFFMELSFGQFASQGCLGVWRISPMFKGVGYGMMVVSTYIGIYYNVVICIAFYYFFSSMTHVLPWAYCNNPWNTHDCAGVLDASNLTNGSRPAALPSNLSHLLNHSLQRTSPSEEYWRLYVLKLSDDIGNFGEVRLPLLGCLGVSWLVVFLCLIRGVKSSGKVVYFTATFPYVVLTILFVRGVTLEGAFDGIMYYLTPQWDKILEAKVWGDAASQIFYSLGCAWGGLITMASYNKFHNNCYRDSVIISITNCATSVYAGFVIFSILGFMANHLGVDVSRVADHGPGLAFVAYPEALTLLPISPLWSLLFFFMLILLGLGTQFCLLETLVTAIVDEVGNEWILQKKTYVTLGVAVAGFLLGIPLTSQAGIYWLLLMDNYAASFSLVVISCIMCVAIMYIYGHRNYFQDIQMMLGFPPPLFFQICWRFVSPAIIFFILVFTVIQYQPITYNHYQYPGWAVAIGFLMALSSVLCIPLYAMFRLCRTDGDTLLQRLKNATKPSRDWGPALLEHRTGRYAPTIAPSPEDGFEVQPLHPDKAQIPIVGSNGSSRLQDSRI
# Sequence of UniProt Q64663 (whole entry, unmodified, looked up): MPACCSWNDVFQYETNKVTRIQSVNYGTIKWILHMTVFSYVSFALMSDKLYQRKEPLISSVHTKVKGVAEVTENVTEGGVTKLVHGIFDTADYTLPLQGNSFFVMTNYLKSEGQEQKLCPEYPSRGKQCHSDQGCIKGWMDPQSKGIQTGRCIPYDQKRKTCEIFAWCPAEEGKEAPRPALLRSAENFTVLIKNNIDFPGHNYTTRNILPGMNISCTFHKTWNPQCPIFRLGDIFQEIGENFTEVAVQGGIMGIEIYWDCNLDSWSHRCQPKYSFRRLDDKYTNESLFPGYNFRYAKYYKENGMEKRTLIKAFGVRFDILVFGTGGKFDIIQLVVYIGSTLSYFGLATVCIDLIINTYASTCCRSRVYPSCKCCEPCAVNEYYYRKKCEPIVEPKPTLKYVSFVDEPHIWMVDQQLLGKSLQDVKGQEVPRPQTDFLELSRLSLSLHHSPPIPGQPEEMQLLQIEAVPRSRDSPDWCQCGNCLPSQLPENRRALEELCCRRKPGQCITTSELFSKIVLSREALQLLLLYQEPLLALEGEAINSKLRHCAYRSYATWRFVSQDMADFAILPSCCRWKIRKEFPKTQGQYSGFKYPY
Substance,target or system,assay,system,conditions,how to read,quantity,value
human delta-aminolevulinic acid dehydratase,,co-immunoprecipitation,human RBC membrane,"DSSO crosslinker, unit not given, added: Band 3 peptide 1-56 bait",relative to: negative control,co-IP enrichment,28.5
insulin degludec,,,human,"subcutaneous, 0.4 IU/kg, 1 FC level, single dose, reference formulation",,apparent clearance CL/F,1.42 ± 0.21 L/h
LVHYTHCGSLGV,Epstein-Barr virus,BamHI-W qPCR,"peptide, B-NDG humanized mouse, EBV-infected, peripheral blood","20 mg/kg, day 28",,EBV DNA copy number,0 copies
KDECVIATEV,human MAGI1-2/6 PDZ construct (MBP fusion),automated holdup,"peptide, crude extract","concentration not given, uncorrected, unit not given","relative to: biotin control resin, higher = stronger binding",binding intensity,0.0745
11-deoxycorticosterone,human CYP11B2,stopped-flow kinetic modelling,,"4-state closed model, added: no adrenodoxin",,Kd,4.31 µM
QGRWDHETIV,human MAGI1-2/6 PDZ construct (MBP fusion),surface plasmon resonance,peptide,concentration not given,higher = stronger binding,normalised SPR binding response,0 normalised RU
ILEAAKSIAAATSALVKAASAAQRE,vinculin head domain Vd1,"complex rupture, AFM single-molecule force spectroscopy",peptide,"traces traces, C-terminal pulling, 800 nm/s",,rupture force FWHM upper side,19.2 pN
caspofungin,,,"adult ICU patients, mITT, serum","dose not given, EOT",,magnesium,0.7 mmol/L
GLFQWLAGV,Jurkat T cells expressing 1G4 TCR,"NFAT-eGFP reporter, flow cytometry",peptide,"concentration not given, HLA-A*02:01 NY-ESO system",,reporter activation,0.091%
milbemycin oxime,Saccharomyces cerevisiae,cell growth,"Pdr5 deleted, Cdr1 overexpressed","2^-8.966 µg/mL, added: fluconazole 1 µg/mL",,OD600,1.02 and 1.01 and 1.03
ALMTWVTQV,Jurkat T cells expressing 1G4 TCR,"NFAT-eGFP reporter, fluorescence microscopy",peptide,"concentration not given, HLA-A*02:01 NY-ESO system",,reporter activation,22.9%
AAASMWR,MsrA and MsrB,LC-MS/MS,"peptide, actinonin-treated Escherichia coli proteome","10 min, pH 7.5, 37 °C, added: MsrA 0.54 µM, MsrB 2.02 µM",,fractional oxidation,0.667
BzATP,"P2X purinoceptor 7 (P2rx7, Rattus norvegicus, UniProt Q64663, R125A)","ion current, agonist, two-electrode voltage clamp",Xenopus oocytes,0.4115 µM,,normalized current,0.0113 and 0.0991 and 0.0768
epoetin alfa,UT7/EPO,"microarray, refers to: CISH mRNA (probe set 223961_s_at)",,"5 U/mL, 90 min",relative to: vehicle,mRNA level,12.9 fold
TCP-1 alpha,,co-immunoprecipitation,human RBC membrane,"DSSO crosslinker, unit not given, added: Band 3 peptide 1-56 bait",relative to: negative control,co-IP enrichment,17.5
KPGKGSETVV,human MAGI1-3/6 PDZ construct (MBP fusion),surface plasmon resonance,peptide,concentration not given,higher = stronger binding,normalised SPR binding response,0 normalised RU
Teicoplanin,,refers to: stability,human serum,"1 days, room temperature, low QC",,recovery,99.9%
GLGQWIPQA,Jurkat T cells expressing 1G4 TCR,"NFAT-eGFP reporter, fluorescence microscopy",peptide,"concentration not given, HLA-A*02:01 NY-ESO system",,reporter activation,0.00314%
colistin,Klebsiella pneumoniae,,clinical isolate RKI 93/10,,,MIC,1 µg/mL
GSGAGQITKV,human SCRIB PDZ3-4 tandem (MBP fusion),surface plasmon resonance,peptide,concentration not given,higher = stronger binding,normalised SPR binding response,0 normalised RU
SLLQWVTQV,Jurkat T cells expressing 1G4 TCR,"NFAT-eGFP reporter, fluorescence microscopy",peptide,"concentration not given, HLA-A*02:01 NY-ESO system",,reporter activation,28.1%
IMQLMPFGCLL,"HLA class I histocompatibility antigen, A alpha chain allele A*02:01","complex stability, off-rate",peptide,37 °C,,half-life of peptide-HLA complex,2.2 h
CCT4,,co-immunoprecipitation,human RBC cytosol,"DMTMM crosslinker, unit not given, added: Band 3 peptide 1-56 bait",relative to: negative control,co-IP enrichment,1270
GLFQWTARA,Jurkat T cells expressing 1G4 TCR,"NFAT-eGFP reporter, fluorescence microscopy",peptide,"concentration not given, HLA-A*02:01 NY-ESO system",,reporter activation,0.0123%
CCT6A,,co-immunoprecipitation,human RBC cytosol,"unit not given, added: Band 3 peptide 1-56 bait",relative to: negative control,co-IP enrichment,0
GGWVEKETYY,human MAGI1-3/6 PDZ construct (MBP fusion),automated holdup,"peptide, purified PDZ protein","concentration not given, unit not given","relative to: biotin control resin, higher = stronger binding",binding intensity,0.0147
difelikefalin,,,Japanese haemodialysis patients with pruritus,"intravenous, 0.5 µg/kg, 8 weeks",,PGIC very much worse,0%
RLFEWVPRL,Jurkat T cells expressing 1G4 TCR,"NFAT-eGFP reporter, flow cytometry",peptide,"concentration not given, HLA-A*02:01 NY-ESO system",,reporter activation,0.18%
ACEEQNPWARYLEWLFPTETLLLEL,,ex vivo fluorescence imaging,"peptide, BALB/c mice, 4T1 tumour-bearing, 4T1 tumour","intravenous, 5 nmol, 4 h post-injection",higher = more uptake,mean fluorescence intensity,3510 ± 623 a.u.
PKRSFIESNV,human MAGI1-2/6 PDZ construct (MBP fusion),automated holdup,"peptide, crude extract","concentration not given, uncorrected, unit not given","relative to: biotin control resin, higher = stronger binding",binding intensity,0.451
ACEQNPIYWARYADWLFTTPLLLLDLALLVDADEGT,,ex vivo fluorescence imaging,"peptide, BALB/c mice, 4T1 tumour-bearing, kidney","intravenous, 5 nmol, 48 h post-injection",higher = more uptake,mean fluorescence intensity,485 ± 126 a.u.
thimet oligopeptidase,,co-immunoprecipitation,human RBC cytosol,"DSSO crosslinker, unit not given, added: Band 3 peptide 1-56 bait",relative to: negative control,co-IP enrichment,0
MTVCNASQRQAHAQATAVSL,H2126,phage binding,peptide,,relative to: targeting over control phage,selectivity ratio,7.1
human alpha-enolase,,co-immunoprecipitation,human RBC cytosol,"DMTMM crosslinker, unit not given, added: Band 3 peptide 1-56 bait",relative to: negative control,co-IP enrichment,488
methyl-β-cyclodextrin,"Sodium- and chloride-dependent glycine transporter 1 (SLC6A9, Homo sapiens, UniProt P48067)","transport activity, [3H]glycine uptake",,"3.5 mg/mL, 1 min, added: glycine 37.5 µM",higher = more transport,glycine uptake rate,12.2 a.u. and 17.1 a.u. and 14.8 a.u. and 15 a.u.
"FNA / CGLSGLGVA-NH2 ([18F]FNA-labelled, C-amide)",,gamma counting,"peptide, healthy mice, Harderian glands",60 min,,tissue uptake,0.32 %ID/g
Polymyxin B,Staphylococcus aureus,DiSC3(5) fluorescence,,"concentration not given, 42 min",higher = more depolarisation,membrane depolarisation,780 a.u. and 552 a.u. and 608 a.u.
GSGAGKESYV,human MAGI1-3/6 PDZ construct (MBP fusion),automated holdup,"peptide, crude extract","concentration not given, uncorrected, unit not given","relative to: biotin control resin, higher = stronger binding",binding intensity,0.74
human HSC70,,co-immunoprecipitation,human plasma,"unit not given, added: Band 3 peptide 1-56 bait",relative to: negative control,co-IP enrichment,1.6
cotadutide,,"lipidomics, refers to: hepatic total Phosphatidylcholines","ob/ob mice on AMLN diet, NASH model, liver",dose not given,,metabolite level,0.86 ± 0.03 scaled intensity
GLGQWISQA,Jurkat T cells expressing 1G4 TCR,"NFAT-eGFP reporter, fluorescence microscopy",peptide,"concentration not given, HLA-A*02:01 NY-ESO system",,reporter activation,0.00728%
STVQLIMQL,"HLA class I histocompatibility antigen, A alpha chain allele A*02:01","complex stability, off-rate",peptide,37 °C,,half-life of peptide-HLA complex,1.1 h
human clusterin,,co-immunoprecipitation,human RBC membrane,"no crosslinker, unit not given, added: Band 3 peptide 1-56 bait",relative to: negative control,co-IP enrichment,0
CTGTTACTCT,Salmonella enterica Typhimurium,broth microdilution,"peptide, SL1344","range over 0.3-10 µM, 24 h, 37 °C, Mueller-Hinton broth",,MIC,> 10 µM
SVWLRKETRV,human SCRIB PDZ3-4 tandem (MBP fusion),automated holdup,"peptide, purified PDZ protein","concentration not given, unit not given","relative to: biotin control resin, higher = stronger binding",binding intensity,0.632
Peginesatide,UT7/EPO,"microarray, refers to: RAB11FIP1 mRNA (probe set 225177_at)",,"20 nM, 90 min",relative to: vehicle,mRNA level,3.4 fold
GLLEWTDRV,Jurkat T cells expressing 1G4 TCR,"NFAT-eGFP reporter, flow cytometry",peptide,"concentration not given, HLA-A*02:01 NY-ESO system",,reporter activation,0.15%

# Excerpt of the above:
Substance,target or system,assay,system,conditions,how to read,quantity,value
ACEQNPIYWARYADWLFTTPLLLLDLALLVDADEGT,,ex vivo fluorescence imaging,"peptide, BALB/c mice, 4T1 tumour-bearing, kidney","intravenous, 5 nmol, 48 h post-injection",higher = more uptake,mean fluorescence intensity,485 ± 126 a.u.
human HSC70,,co-immunoprecipitation,human plasma,"unit not given, added: Band 3 peptide 1-56 bait",relative to: negative control,co-IP enrichment,1.6
Polymyxin B,Staphylococcus aureus,DiSC3(5) fluorescence,,"concentration not given, 42 min",higher = more depolarisation,membrane depolarisation,780 a.u. and 552 a.u. and 608 a.u.
epoetin alfa,UT7/EPO,"microarray, refers to: CISH mRNA (probe set 223961_s_at)",,"5 U/mL, 90 min",relative to: vehicle,mRNA level,12.9 fold
LVHYTHCGSLGV,Epstein-Barr virus,BamHI-W qPCR,"peptide, B-NDG humanized mouse, EBV-infected, peripheral blood","20 mg/kg, day 28",,EBV DNA copy number,0 copies
ILEAAKSIAAATSALVKAASAAQRE,vinculin head domain Vd1,"complex rupture, AFM single-molecule force spectroscopy",peptide,"traces traces, C-terminal pulling, 800 nm/s",,rupture force FWHM upper side,19.2 pN
difelikefalin,,,Japanese haemodialysis patients with pruritus,"intravenous, 0.5 µg/kg, 8 weeks",,PGIC very much worse,0%
